Measurements from different studies.
Lines come from different studies, so protocols differ. ± gives the spread as reported.

Substance	cell line	test	conditions	IC50
COc1cc2c(c(OC)c1OC)-c1ccc(N)c(=O)cc1[C@@H](NC(C)=O)CC2	MCF7 MT1-MMP negative	cell viability, MTT	96 h exposure	0.063 ± 0.02 µM
N.N.[Cl][Pt][Cl]	CH1	cell viability, MTT	96 h	0.077 ± 0.006 µM
CC[C@@]1(O)C(=O)OCc2c1cc1n(c2=O)Cc2cc3c([N+](=O)[O-])cccc3nc2-1	293FT	cell viability	–	> 15 µM
N=C(N)c1ccc(C=Cc2ccc(C(=N)N)cc2O)cc1	EBV-positive B cells	LMP-1 mediated NF-κB activity, luciferase reporter	48 h	29.6 ± 6.6 µM
N.N.[Cl][Pt][Cl]	HEK293	cell growth or viability, MTT	–	8 µM
CN1CCC(CNc2ccc3ncc(-c4cccc(OC(F)(F)F)c4)n3n2)CC1	22Rv1	cell viability, ATP	72 h	~2.5 µM
COC(=O)[C@H]1[C@@H](O)[C@@]2(O)c3c(OC)cc(O[C@@H]4O[C@@H]([C@H](O)CO)CO[C@H]4OC)cc3O[C@@]2(c2ccc(OC)cc2)[C@@H]1c1ccccc1	NIH/3T3 control shRNA	cell viability	5 days	0.006 µM
O=C(Cn1cnc2ccccc2c1=O)Nc1ccccc1O	HEK293	cell growth or viability, crystal violet	48 h	> 100 µM
Nc1nc(NC2CC2)c2ncn([C@H]3C=C[C@@H](CO)C3)c2n1	human T-lymphocyte	cell growth or viability	72 h	> 250 µM
O=c1c2ccccc2nc(S)n1Cc1cccnc1	HepG2.2.15	cell growth or viability, crystal violet	48 h	46.4 µM
C[n+]1cc2c3c(ccc2c2ccc4cc5c(cc4c21)OCO5)OCO3	LAPC4	AR transcriptional activity, antagonist, PSA promoter luciferase	24 h	0.5 µM
C[n+]1ccc(-c2ccc(I)cc2)cc1	MN9D	cell growth or viability, MTT	16 h	46.6 µM
CC1(C)OC2=C(C(=O)C(=O)c3ccccc32)C1Nc1cccc(-c2cn(C[Se]c3ccccc3)nn2)c1 (centres unmarked)	six human cancer cell lines	MTT	72 h, range over cell lines	0.07 to 0.38 µM
COCC1(CO)C(=O)C2CCN1CC2 (centres unmarked)	SKM-1	cell proliferation	3 d	0.5 µM
N.N.[Cl][Pt][Cl]	MRC5	cell growth or viability, resazurin	–	33.7 µM
C=C(CC[C@@H](C)[C@H]1CC[C@H]2C3=C(C(=O)C[C@]12C)[C@@]1(C)CCC(=O)[C@@H](C)[C@@H]1CC3=O)C(C)C(=O)O (some centres unmarked)	BV-2	NO release, inhibitor, Griess	24 h, LPS-stimulated	< 5 µM
COc1cc2cc(c1Cl)N(C)C(=O)C[C@H](OC(=O)[C@H](C)N(C)C(=O)CCS)[C@]1(C)O[C@H]1[C@H](C)[C@@H]1C[C@@](O)(NC(=O)O1)[C@H](OC)/C=C/C=C(\C)C2	BT-474	cell growth or viability, ATP luminescence	–	0.0239 µM
salinomycin 20-ethyl carbonate sodium	JIMT-1	MTT	72 h, 3D PCL culture, normoxia	0.271 ± 0.0522 µM

Substance	cell line	test	conditions	IC50
Cc1ccc(C(C)C)cc1.[Cl][Ru]([Cl])[PH]12CN3CN(CN(C3)C1)C2	A2780	cell growth or viability, MTT	–	> 200 µM
COc1ccc2ccc(=O)oc2c1OC	PAM212	cell growth	4 to 5 days, with: UVA 1.28 J/cm^2	33 µM
CC(C)[C@@H]1NC(=O)[C@H](CCCCN)NC(=O)[C@@H](Cc2c[nH]c3ccccc23)NC(=O)[C@H](Cc2ccc(O)cc2)NC(=O)[C@@H](NC(=O)[C@H](N)Cc2ccc3ccccc3c2)CSSC[C@@H](C(=O)N[C@H](C(N)=O)[C@@H](C)O)NC1=O	NCI-H720	cell proliferation, MTT	72 h	6.5e-06 µM
O=C(Cn1cnc2ccccc2c1=O)Nc1ccc(O)cc1[N+](=O)[O-]	HepG2.2.15	cell growth or viability, crystal violet	48 h	> 100 µM
glaucarubolone glucoside	MCF-7	viability, MTS	24 h	8.65 ± 1.11 µM
CC(C)[C@H](CO)Nc1nc(Nc2cc(N)cc(Cl)c2)c2ncn(C(C)C)c2n1	H2030 (EGFR wild type)	cell viability, Alamar Blue	120 h	> 10 µM
CO/C(=C/C(N)=O)[C@H](C)[C@H](/C=C/c1csc(-c2csc([C@@H](C)/C=C/C=C/C(C)C)n2)n1)OC	HEK293	oxygen consumption	–	0.029 ± 0.012 µM
N.N.[Cl][Pt][Cl]	HT-29	cell viability, MTS	48 h	80.6 ± 1.6 µM
CC[C@H](C)[C@H](NC(=O)[C@H](CCCCN)NC(=O)[C@H](CCCCN)NC(=O)[C@H](CC(C)C)NC(=O)[C@@H](NC(=O)[C@H](CCCCN)NC(=O)[C@H](C)NC(=O)[C@H](C)NC(=O)[C@@H](NC(=O)CNC(=O)[C@H](C)NC(=O)[C@@H](NC(=O)[C@@H](NC(=O)[C@@H]1CCCN1C(=O)[C@H](Cc1ccccc1)NC(=O)[C@@H](N)Cc1ccccc1)[C@@H](C)CC)C(C)C)C(C)C)C(C)C)C(=O)N[C@@H](Cc1ccccc1)C(=O)N[C@H]1CSSC[C@@H](C(=O)O)NC(=O)[C@H](CCCCN)NC(=O)[C@H](CCCCN)NC(=O)[C@H](CO)NC(=O)[C@H]([C@@H](C)CC)NC(=O)[C@H]([C@@H](C)O)NC1=O	H838	cell viability, MTT	–	6.88 µM
CC(C)c1ccc2c(c1)CC[C@H]1[C@](C)(CN)CCC[C@]21C	WM278.1 melanoma (vertical growth phase)	cell viability, MTS	72 h	2.27 ± 0.07 µM
[Cl][Cd][Cl]	Caco-2 monolayers	transepithelial resistance	96 h, repeated dosing	22 µM
O=C1C(=O)N(Cc2ccc(CN=C=S)cc2)c2c(Br)cc(Br)cc21	HT-29	cell growth or viability, MTS	48 h	~1 µM
Cc1ccc(C(C)C)cc1.[Cl][Ru]([Cl])[PH]12CN3CN(CN(C3)C1)C2	HCC1806	cell viability, PrestoBlue	–	750 µM
CC(/C=C/C(C)=C/[C@@H]1Cc2nc(cs2)CCCCC(=O)O[C@@H](C)C/C(C)=C/C=C\C(=O)O1)=C\CN(C)C	primary CLL cells	apoptosis induction, annexin V/PI staining	24 h, 10% autologous patient plasma	6.88 µM
N.N.[Cl][Pt][Cl]	human PBMC	cytotoxicity, MTT	24 h	500 ± 18 µM
C=C(C)C1CC=C(COC(=O)CCC(=O)OC2OC3OC4(C)CCC5C(C)CCC(C2C)C35OO4)CC1 (centres unmarked)	RPMI-7951	cell viability, MTT	24 h, with: deferoxamine 20 µM, 1 h before	2.95 ± 0.7 µM
N=C(N)NCCC[C@H](NC(=O)[C@H](Cc1c[nH]c2ccccc12)NC(=O)[C@H](CCC(N)=O)NC(=O)[C@H](Cc1c[nH]c2ccccc12)NC(=O)[C@@H](N)CCCNC(=N)N)C(=O)N[C@@H](Cc1c[nH]c2ccccc12)C(=O)N[C@@H](CCC(N)=O)C(=O)N[C@@H](Cc1c[nH]c2ccccc12)C(=O)N[C@@H](CCCN)C(N)=O	HT-29	cell growth or viability, MTT	–	109 µM
